{"data": "Experimental data gathered from unrelated publications", "organism": "Staphylococcus aureus", "note": "Compare with care: the assays were run in different laboratories. Bridge positions count the residues as written; N and C are the ends. Ends that are not written are not given here."}
{"Substance": "CC[C@H](C)[C@H](N)C(=O)N[C@@H](CC(C)C)C(=O)N1CCC[C@H]1C(=O)N[C@@H](Cc1c[nH]c2ccccc12)C(=O)N[C@@H](CCCCN)C(=O)N[C@@H](Cc1c[nH]c2ccccc12)C(=O)N1CCC[C@H]1C(=O)N[C@@H](Cc1c[nH]c2ccccc12)C(=O)N[C@@H](Cc1c[nH]c2ccccc12)C(=O)N1CCC[C@H]1C(=O)N[C@@H](Cc1c[nH]c2ccccc12)C(=O)N[C@@H](CCCNC(=N)N)C(=O)N[C@@H](CCCNC(=N)N)C(N)=O", "assay": "broth microdilution", "system": "methicillin-susceptible clinical isolates, Mueller-Hinton broth", "conditions": "18 h, 35 °C", "endpoint": "MIC range", "result": "1 to 8 µg/mL"}
{"Substance": "ACPIFTKIQGTYRGKAKCK (disulfide 2-18 (inferred)) (disulfide)", "system": "ATCC 8530", "conditions": "MBC, 2 h, pH 7.4, 37 °C, with: E. coli K-235 LPS at peptide:LPS 1:5 w/w", "endpoint": "antibacterial activity", "result": "inhibited"}
{"Substance": "CC[C@H](C)[C@H](NC(=O)[C@H](CCCCN)NC(=O)[C@H](CCC(=O)O)NC(=O)[C@H](CCCCN)NC(=O)[C@H](CO)NC(=O)[C@H](CCCCN)NC(=O)[C@H](CCCNC(=N)N)NC(=O)[C@H](Cc1ccccc1)NC(=O)[C@H](Cc1ccccc1)NC(=O)[C@H](CC(=O)O)NC(=O)CNC(=O)[C@H](CC(C)C)NC(=O)[C@@H](N)CC(C)C)C(=O)NCC(=O)N[C@@H](CCCCN)C(=O)N[C@@H](CCC(=O)O)C(=O)N[C@@H](Cc1ccccc1)C(=O)N[C@@H](CCCCN)C(=O)N[C@@H](CCCNC(=N)N)C(=O)N[C@H](C(=O)N[C@H](C(=O)N[C@@H](CCC(N)=O)C(=O)N[C@@H](CCCNC(=N)N)C(=O)N[C@H](C(=O)N[C@@H](CCCCN)C(=O)N[C@@H](CC(=O)O)C(=O)N[C@@H](Cc1ccccc1)C(=O)N[C@@H](CC(C)C)C(=O)N[C@@H](CCCNC(=N)N)C(=O)N[C@@H](CC(N)=O)C(=O)N[C@@H](CC(C)C)C(=O)N[C@H](C(=O)N1CCC[C@H]1C(=O)N[C@@H](CCCNC(=N)N)C(=O)N[C@H](C(=O)N[C@@H](CCC(=O)O)C(=O)N[C@@H](CO)C(=O)O)[C@@H](C)O)C(C)C)[C@@H](C)CC)C(C)C)[C@@H](C)CC", "system": "JE2 SAUSA300_0988 trkA transposon mutant", "conditions": "12.5% TSB", "scale": "baseline: wild type over mutant", "endpoint": "MIC ratio", "result": "2 fold"}
{"Substance": "CCCCCCOc1c(OC)cc(NC(C)CCCN)c2nc(C(C)(C)C)cc(C)c12 (stereo not drawn)", "assay": "microbial killing", "system": "ATCC33591 MRSA", "conditions": "drug-resistant strain", "endpoint": "MBC", "result": "10 µg/mL"}
{"Substance": "CC[C@H](C)[C@H](NC(=O)[C@@H](NC(=O)CN)C(C)C)C(=O)N[C@@H](Cc1ccccc1)C(=O)N[C@@H](CC(N)=O)C(=O)N[C@@H](C)C(=O)N[C@@H](CC(C)C)C(=O)N[C@@H](CCCCN)C(=O)NCC(=O)N[C@H](C(=O)N[C@@H](C)C(=O)N[C@@H](CCCCN)C(=O)N[C@H](C(=O)N[C@H](C(=O)N[C@@H](C)C(=O)N[C@@H](C)C(=O)N[C@@H](CCC(N)=O)C(=O)N[C@@H](CC(C)C)C(=O)N[C@@H](CC(C)C)C(=O)N[C@@H](CCCCN)C(N)=O)C(C)C)[C@@H](C)O)C(C)C", "assay": "persister cells in biofilm", "system": "MRSA ATCC BAA-1707", "conditions": "with: vancomycin 4 µg/mL", "endpoint": "MBEC", "result": "512 µM"}
{"Substance": "CCCCCCCOc1c(OC)cc(NC(C)CCCNC(=O)C(N)CCCNC(=N)N)c2nc(C(C)(C)C)ccc12 (stereo not drawn)", "assay": "bacterial growth", "system": "MRSA ATCC 33591", "endpoint": "IC50", "result": "> 20 µg/mL"}
{"Substance": "C[C@@H](O)[C@H]1C(=O)N2C(C(=O)O)=C(S[C@@H]3CN[C@H](C(=O)N(C)C)C3)[C@H](C)[C@H]12", "assay": "checkerboard broth microdilution", "system": "ATCC 38591 oxacillin-resistant", "conditions": "with: magainin II", "endpoint": "FIC index", "result": 0.25}
{"Substance": "CC[C@H](C)[C@H](NC(=O)[C@H](C)NC(=O)[C@@H](NC(=O)[C@H](C)NC(=O)CNC(C)=O)[C@@H](C)O)C(=O)N[C@@H](CCCCN)C(=O)N[C@@H](CCC(N)=O)C(=O)N[C@H](C(=O)N[C@@H](CCCCN)C(=O)N[C@@H](CCCCN)C(=O)N[C@@H](CC(C)C)C(=O)N[C@@H](Cc1ccccc1)C(=O)N[C@@H](CCCCN)C(=O)N[C@@H](CCCCN)C(=O)N[C@@H](CCCCN)C(=O)NCC(=O)NCC(N)=O)C(C)C", "assay": "broth microdilution", "system": "ATCC 25923", "conditions": "24 h, 37 °C", "endpoint": "MIC50", "result": "78 µM"}
{"Substance": "CCCCCCCOc1c(OC)cc(NC(C)CCCNC(=O)C(N)CCCN)c2nc(C(C)(C)C)ccc12 (stereo not drawn)", "system": "MRSA ATCC 33591", "endpoint": "MBC", "result": "> 20 µg/mL"}
{"note": "For quick reference, copied from above:"}
{"Substance": "CC[C@H](C)[C@H](NC(=O)[C@@H](NC(=O)CN)C(C)C)C(=O)N[C@@H](Cc1ccccc1)C(=O)N[C@@H](CC(N)=O)C(=O)N[C@@H](C)C(=O)N[C@@H](CC(C)C)C(=O)N[C@@H](CCCCN)C(=O)NCC(=O)N[C@H](C(=O)N[C@@H](C)C(=O)N[C@@H](CCCCN)C(=O)N[C@H](C(=O)N[C@H](C(=O)N[C@@H](C)C(=O)N[C@@H](C)C(=O)N[C@@H](CCC(N)=O)C(=O)N[C@@H](CC(C)C)C(=O)N[C@@H](CC(C)C)C(=O)N[C@@H](CCCCN)C(N)=O)C(C)C)[C@@H](C)O)C(C)C", "assay": "persister cells in biofilm", "system": "MRSA ATCC BAA-1707", "conditions": "with: vancomycin 4 µg/mL", "endpoint": "MBEC", "result": "512 µM"}
